Measurements pooled from the literature.
Each numbered part is a random draw from the data of one study; scales do not carry over between parts. Substitutions count along the parent as printed.

Set 1 — technique: competition protein-binding microarray; form: double-stranded DNA, one strand shown; medium: in vitro; concentration: 2 µM; with: Cbf1 competitor, 0.05 µM; reading: higher = stronger binding; shared flanks, not repeated: … GTCTTGATTCGCTTGACGCTGCTG
Target: Phosphate system positive regulatory protein PHO4, full length, GST-tagged (PHO4, Saccharomyces cerevisiae, UniProt P07270, residues 1-312)
Notes: whole 60-bp probe, lowest competitor level
Target sequence (chain): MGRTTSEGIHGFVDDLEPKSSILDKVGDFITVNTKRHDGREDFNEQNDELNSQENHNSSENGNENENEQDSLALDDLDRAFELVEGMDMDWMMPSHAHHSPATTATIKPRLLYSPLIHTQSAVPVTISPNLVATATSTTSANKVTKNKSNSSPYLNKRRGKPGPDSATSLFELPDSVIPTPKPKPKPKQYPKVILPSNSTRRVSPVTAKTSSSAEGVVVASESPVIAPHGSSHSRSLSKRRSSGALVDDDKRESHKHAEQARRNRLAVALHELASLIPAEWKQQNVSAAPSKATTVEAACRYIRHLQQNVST
Strand | fluorescence intensity [a.u.]
TGGGTCCACTTGAAATGCGTGCCGATGAAACGCATT | 9170
CCTCTTTTAATATGTAACGTGTCGGTTCTATTTATC | 10500
CGAATCAGGTTTCCCAACGTGTGGACCTCCTTCTCA | 9420
ATAAAATTTCAGAATCACATGTTCGTAAAACAACCG | 8860
AAATTACTAAGTTGGCTGGTGGGTGACGCCGTATGA | 3990
GCCAATATCAAGAAAAACGTGTTGGGGGACGAAAAT | 12600
GTTATAAAAGAATGTCCCGTGGTGAAAATGGATGAG | 8740
AAATTACTAAGTTGAGAGGTGGGTGACGCCGTATGA | 3740

Set 2 — effect on: peptide-MHC binding; form: peptide; concentration: concentration not given
Target: HLA class I histocompatibility antigen, A alpha chain, allele A*80:01 (Homo sapiens, UniProt P04439)
Molecule | binding
ETWVETWAF | inactive
MTQNISNDK | inactive
DEYGPVFVE | inactive
TLKPGTMSV | inactive
HAEQGLIQY | inactive
KLADYLLLQ | inactive
FVDVGVSAL | inactive
GTEYRLTLY | inactive
PLFPGITRV | inactive
AIFQSSMTK | inactive
LTDKSGSEY | inactive
HWMDATFNI | inactive
STNTLPTEY | inactive
AESICSYWL | inactive
VHREWFMDL | inactive
MTGVMRGNY | inactive
DETFVHSGF | inactive
ASSEPHCAL | inactive
FPASHMATY | inactive
SHGIDVTDL | inactive
MTRGLLGSY | inactive

Set 3 — technique: protein binding microarray; form: double-stranded DNA, one strand shown; medium: in vitro; concentration: not given; baseline: not given; reading: higher = stronger binding
Target: Histone acetyltransferase KAT6A, both winged helices, GST fusion (KAT6A, Homo sapiens, UniProt Q92794, residues 1-181)
Notes: 8-mer, flanks averaged, mean of 2 arrays, mostly near background
Residues (chain): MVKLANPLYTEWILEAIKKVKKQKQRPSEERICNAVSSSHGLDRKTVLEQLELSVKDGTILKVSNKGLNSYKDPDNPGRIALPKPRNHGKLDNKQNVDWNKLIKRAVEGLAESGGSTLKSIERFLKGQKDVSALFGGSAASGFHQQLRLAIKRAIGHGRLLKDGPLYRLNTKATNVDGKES
Strand | E-score
CCCGAGTA | 0.0499
CCCCCCCC | -0.248
TCTCGAGA | 0.0378
CACATAAA | -0.0256
TCAATACA | -0.173
GCACCGCA | 0.161
GTTTTCTA | 0.0111
CCGCCTAA | 0.18

Set 4 — target: CCND1, cyclin fold, Cln2 fusion (human); technique: yeast growth competition, sequencing; medium: yeast; notes: strong parent motif; baseline: not given; reading: higher = stronger binding
Starting sequence: viral docking peptide; KGVKRKLFAEDSS; partner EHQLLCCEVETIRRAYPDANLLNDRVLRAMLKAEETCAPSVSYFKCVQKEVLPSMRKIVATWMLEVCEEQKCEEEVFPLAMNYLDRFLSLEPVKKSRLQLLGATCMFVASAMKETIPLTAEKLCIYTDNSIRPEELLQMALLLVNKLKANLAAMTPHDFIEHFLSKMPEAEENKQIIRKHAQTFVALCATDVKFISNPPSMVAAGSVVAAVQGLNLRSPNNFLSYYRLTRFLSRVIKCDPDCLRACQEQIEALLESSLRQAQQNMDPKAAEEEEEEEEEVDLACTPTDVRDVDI
Change | normalised enrichment score
R5A | 0.103
F8K | 0.274
S12M | 0.967
E10L | 0.609
E10P | 0.611
V3S | 0.772
G2I | 0.872
F8G | 0.219
K6I | 1.01
R5C | 0.58
R5E | 0.118
L7A | -0.173
L7P | -0.158
K6H | 0.238
F8N | -0.00788
A9N | 0.71
E10W | 0.49
F8Q | 0.136
L7E | 0.24
K6G | 0.272
V3G | 0.437
S12G | 1.33

For quick reference, copied from above (set 4):
Change | normalised enrichment score
E10W | 0.49
K6G | 0.272
E10L | 0.609
S12G | 1.33
F8G | 0.219
K6I | 1.01
L7P | -0.158
